Assay results of several laboratories.
Every numbered part comes from another study and shows a few of its results, in no order.

Series 1 — technique: universal PBM; molecule type: double-stranded DNA, one strand shown; medium: in vitro; concentration: 600 nM; reading: higher = stronger binding
Target: Sal-like protein 4, full length isoform A (SALL4, Homo sapiens, UniProt Q9UJQ4, residues 1-1053)
Sequence of UniProt Q9UJQ4 (whole entry, looked up): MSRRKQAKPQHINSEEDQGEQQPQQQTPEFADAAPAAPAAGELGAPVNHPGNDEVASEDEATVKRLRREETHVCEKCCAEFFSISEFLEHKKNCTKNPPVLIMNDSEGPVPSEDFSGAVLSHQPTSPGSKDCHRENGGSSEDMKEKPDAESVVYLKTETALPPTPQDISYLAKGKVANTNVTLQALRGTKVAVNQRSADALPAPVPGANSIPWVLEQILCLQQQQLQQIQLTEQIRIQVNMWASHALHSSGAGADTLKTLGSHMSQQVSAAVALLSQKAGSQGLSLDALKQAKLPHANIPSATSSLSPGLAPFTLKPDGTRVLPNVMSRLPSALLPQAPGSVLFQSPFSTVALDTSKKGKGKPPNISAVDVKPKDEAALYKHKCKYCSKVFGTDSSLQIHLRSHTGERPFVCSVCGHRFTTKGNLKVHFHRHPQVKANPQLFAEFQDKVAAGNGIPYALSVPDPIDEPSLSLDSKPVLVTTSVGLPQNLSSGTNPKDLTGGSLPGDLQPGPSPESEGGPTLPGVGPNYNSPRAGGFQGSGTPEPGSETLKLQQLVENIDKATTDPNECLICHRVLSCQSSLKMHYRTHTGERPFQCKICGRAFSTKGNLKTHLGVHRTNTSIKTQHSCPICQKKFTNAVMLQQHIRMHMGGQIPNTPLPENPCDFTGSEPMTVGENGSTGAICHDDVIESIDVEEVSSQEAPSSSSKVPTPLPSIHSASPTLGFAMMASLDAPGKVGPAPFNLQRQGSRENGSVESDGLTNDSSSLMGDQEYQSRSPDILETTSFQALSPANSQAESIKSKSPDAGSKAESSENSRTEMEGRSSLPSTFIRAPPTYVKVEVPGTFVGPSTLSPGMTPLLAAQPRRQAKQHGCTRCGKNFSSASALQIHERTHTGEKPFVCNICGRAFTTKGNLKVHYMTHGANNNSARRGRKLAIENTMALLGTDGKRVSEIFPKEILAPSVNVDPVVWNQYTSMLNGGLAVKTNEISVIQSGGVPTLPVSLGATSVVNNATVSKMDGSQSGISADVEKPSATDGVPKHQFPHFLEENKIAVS
Notes: 8-mer, flanks averaged, mean of replicates
Strand | E-score
ATTGCAGC | 0.0695
GTGTTTAA | 0.11
TTCCTAAA | 0.229
AGGGATAA | 0.0973
AGGCACTG | -0.0755
GCGGTAAA | -0.059
CGCCACGA | -0.0126
ACTTGGCC | -0.176
ATGCGAGG | 0.0161
CGTCGACC | -0.163
CAGACCCG | -0.276
ACCTCAAA | 0.127
CACGAAGG | -0.116
AGCGTGTG | -0.0182
ATGGAGGG | -0.116
GGAGCCAC | -0.423
GACCCGGC | -0.334
AGGCATAT | 0.242
CAGGGGAG | -0.249
AAGCCGCC | -0.296

Series 2 — technique: aptamer microarray, sandwich; molecule type: DNA with 2'F-ANA; medium: in vitro; concentration: 200 nM; together with: Cy3 exosite-II aptamer, 400 nM; reading: higher = stronger binding; strand: GGTTGGTGTGGTTGG
Target: Prothrombin, mature alpha-thrombin (F2, Homo sapiens, UniProt P00734)
Notes: whole 15-mer aptamer, many near background
Modification | mean fluorescence intensity [a.u.]
2'F-ANA at 1 7 11 15 | 176
2'F-ANA at 2 5 8 11 15 | 97.3
2'F-ANA at 3 4 6 7 9 10 | 288
2'F-ANA at 2 4 6 7 8 9 12 14 | 159
2'F-ANA at 1 4 6 7 9 10 12 15 | 63
2'F-ANA at 1 2 3 7 8 9 10 11 15 | 71.1
2'F-ANA at 2 6 7 8 9 10 11 | 103
2'F-ANA at 1 4 5 6 8 10 11 15 | 54.3
2'F-ANA at 4 5 6 7 9 11 13 14 | 44
2'F-ANA at 5 7 8 9 11 14 | 46.4
2'F-ANA at 3 7 8 13 14 | 713
2'F-ANA at 2 3 4 6 9 12 13 14 15 | 221
2'F-ANA at 6 7 8 11 14 15 | 189
2'F-ANA at 3 4 5 6 12 13 14 15 | 54.6
2'F-ANA at 2 5 6 8 10 11 13 14 15 | 52
2'F-ANA at 1 2 3 7 9 11 12 14 | 103
2'F-ANA at 1 2 3 4 5 7 8 10 11 12 | 49.2
2'F-ANA at 2 3 4 5 8 9 11 12 14 15 | 150
2'F-ANA at 1 4 5 6 8 9 10 11 12 13 14 15 | 59.1
2'F-ANA at 1 2 6 8 9 13 | 121
2'F-ANA at 2 3 5 6 8 11 13 | 107
2'F-ANA at 1 2 4 7 10 11 12 14 | 54.8
2'F-ANA at 3 5 6 7 15 | 107
2'F-ANA at 2 3 4 5 7 9 12 13 15 | 122
2'F-ANA at 2 3 5 7 9 10 12 13 14 15 | 49.9

Series 3 — technique: RNA Bind-n-Seq; molecule type: RNA; medium: in vitro; concentration: 365 nM; baseline: no-protein control; reading: higher = stronger binding
Target: RNA binding protein fox-1 homolog 2, RRM domain, GST-SBP tag (RBFOX2, Homo sapiens, UniProt O43251-10, residues 100-194)
Notes: natural RNA segment, single round, ends assumed
Shared flanks, not repeated: GGGAGUUCUACAGUCCGACGAUC … UGGAAUUCUCGGGUGCCAA
Construct (chain): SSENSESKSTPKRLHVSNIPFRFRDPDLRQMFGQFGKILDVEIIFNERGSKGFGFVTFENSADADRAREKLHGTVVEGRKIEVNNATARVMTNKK
Strand | RBNS enrichment (R)
UGGAAAACCAGGGAUAUUUUUUUUUCCUCAACUUCUUCUCUUUACUCCCUACCCCUCUCCUCCCUAAUUCUGUCUUCCUUCUCUCCACUCUUUUAAGAUUCAGAGGGUAC | 0.558
UUCAAUGAAUUUCUGCCUAUGAGGCAUCUGGCCCCUGGUAGCCAGCUCUCCAGAAUUACUUGUAGGUAAUUCCUCUCUUCAUGUUCUAAUAAACUUCUACAUUAUCACCA | 0.391
AUACAUGUAUAAACUGUAUAGUGUACAUGUUAAUGAUUUAUCAGUAUGCCCCGAAUUCCUAGUGCAGUUCUCAUUCUCCGCAUGCCCUCAGCUGUGGUCAGGUGACUUCC | 0.233
GUAACUUGAUCCUCCCGAGCUGUGAGCGCAGUCUGAGGUGUGAGGACACGGCCUCCUGUUGGAGUCCCAUUUUCUCCAUCAGGGCACGUGGGCGGCUUCCUCAAGCCCGG | 1.22
GUUCUUGCGGUUUCUUCCAUUGCUUCUAGGCAGAGCCAAGGACUCAUCCUCACCAUCCAUACAUGGGAGAUAUUUAAAGUUUCUAAAGUCGAUCCCACCAGCCCUCGAUG | 0.571
CCCAGUCAGCUUUGCCAUACUGACGUCAAUCAUUUGAGAGAAAUUAUUCAGAUUUUAUUUUUGUAUCUGUGGUAACAAAACAUUAACCAAAAGAUUUUCUGUCCAGAAGC | 0.517
CCUAACCUUCAGCCGAAUGUAACUGAUAAGUAUAUUCUAUGUAUAAAAAAAUGUUUAAAGAUGUCUUCAAGGAAGACUAGAGUCUUUAAAUCACUUAUAGCUAUAUUUUA | 0.552
CACCUGGACCAUUUGAUUGUUUUAUUUUGGAAUUGGUGUAUAUCAUGAAGCCUUGCUGAACUAAGUUUUGUGUGUAUAUAUUUAAAAAAAAAAUCAGUGUUUAAAUAAAG | 0.442
CAGCAUUUAAAGAGAGGAAGGAGAACCAUCCUGGACACUCCGGGCUGUGCAUGUUUAAAGAAAUGUCCCUUAUGAGAAUGAAAGCUGAUUCCGUGUCCCAACUUUAGAGA | 54.1
GUAAUGAUCUGCAAGUCCCGGAGAGCAACAGCACAGCUCCGCCUGACGCUCUCAUUAAAAUCCAUGCAGCCAAGCUCUGCGCUUUGUAGCAGCCGGCCUUGCAGAGCCUC | 0.388
CUCCUUGUAACCUUCUGUAACUAUUGGAUGACGCUUUCUCCAGCUUAGCCCUAAAUAAAGCACAGUUAAAAAAAAAACCAAAAACCUCAAAGAGUCCUUAUUGCUCUGUG | 0.652
CCUGUCAGAAAGGUUUUCCUCUGUGCUACCCUUAACUUAGGGAUGAACAGACUAUAACUAGGAAAGGAGGAAAGGUAUCAGGGAUUUUUAAGUCCGUUUAGAGAGCAAAC | 0.396

Series 4 — technique: protein-binding microarray; molecule type: double-stranded DNA, one strand shown; medium: in vitro; concentration: 2200 nM top; notes: 60-bp whole probe; together with: salmon DNA 0.4 mg/ml; baseline: random background probes; reading: higher = stronger binding; shared flanks, not repeated: GCCTAGCAC … GTCTTGATTCGCTTGACGCTGCTG
Target: Interferon regulatory factor 7, full length, phosphomimetic (IRF7, Homo sapiens, UniProt Q92985, residues 1-503, S471D/S472D/S475D/S476D/S477D/S483D/S484D/S487D)
Sequence of UniProt Q92985 (whole entry, unmodified, looked up): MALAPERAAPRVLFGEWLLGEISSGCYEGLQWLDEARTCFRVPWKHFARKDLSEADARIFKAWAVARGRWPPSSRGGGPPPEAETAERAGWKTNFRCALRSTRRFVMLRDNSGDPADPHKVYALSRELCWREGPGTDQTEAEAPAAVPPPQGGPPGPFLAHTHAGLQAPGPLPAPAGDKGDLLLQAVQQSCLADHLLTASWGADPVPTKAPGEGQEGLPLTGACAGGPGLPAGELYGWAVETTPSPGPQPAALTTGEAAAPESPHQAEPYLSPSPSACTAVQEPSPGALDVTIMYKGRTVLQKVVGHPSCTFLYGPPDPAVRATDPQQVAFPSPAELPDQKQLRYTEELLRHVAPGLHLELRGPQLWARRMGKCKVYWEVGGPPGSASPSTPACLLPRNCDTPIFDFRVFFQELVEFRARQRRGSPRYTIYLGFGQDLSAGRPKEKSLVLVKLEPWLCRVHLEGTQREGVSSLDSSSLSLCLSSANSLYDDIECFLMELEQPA
Strand | fitted relative affinity [z-score]
GACGATTCCAGTTTCGAGAAGTGCTAG | 2.38
TTAGAACTGAGTTTCGTTTAGTGCTAG | 4.68
TCATATTCATATATATAACTGTGCTAG | 1.24
TTGGGTATCGGTATCGGTTAGTGCTAG | 0.972
TAAGATTTCGGGACTGGATTAGTGCTA | 0.611
TCATGTCAACTTTCTCTGACTGTGCTA | 1.06
TTAGGTATCGACGATCGGTTAGTGCTA | -0.0356
GACGGTCCCGGTTTCGGGACGTGCTAG | 2.98
ATATATATCATTTAATTATAGTGCTAG | 0.382
TGAGATTTCCATTATTGCTTGTGCTAG | 0.894
TTGGATTTCAGACTGGATTAGTGCTAG | 0.322
TTAGAGATCAGTATCGATTAGTGCTAG | -0.0859
GACGGTTTTGGGTTTCGGGACGTGCTA | 3.39
GACGGACTGCATATCCTGACGTGCTAG | 0.189
TTAGATTTCGGGAGTGGATTAGTGCTA | 0.401
GACTGTTTCGACTATCGGGACGTGCTA | 2.81

Series 5 — technique: RNA Bind-n-Seq; molecule type: RNA; medium: in vitro; concentration: not given; notes: RNA with constant flanks, ends assumed; baseline: input RNA pool; reading: higher = stronger binding
Target: RING finger protein unkempt homolog, zinc fingers 1-6, GST-SBP tag (UNK, Homo sapiens, UniProt Q9C0B0, residues 30-357)
Shared flanks, not repeated: GGGAGUUCUACAGUCCGACGAUC … CAACAGAGGAUUGAGCAUCA
Target sequence (chain): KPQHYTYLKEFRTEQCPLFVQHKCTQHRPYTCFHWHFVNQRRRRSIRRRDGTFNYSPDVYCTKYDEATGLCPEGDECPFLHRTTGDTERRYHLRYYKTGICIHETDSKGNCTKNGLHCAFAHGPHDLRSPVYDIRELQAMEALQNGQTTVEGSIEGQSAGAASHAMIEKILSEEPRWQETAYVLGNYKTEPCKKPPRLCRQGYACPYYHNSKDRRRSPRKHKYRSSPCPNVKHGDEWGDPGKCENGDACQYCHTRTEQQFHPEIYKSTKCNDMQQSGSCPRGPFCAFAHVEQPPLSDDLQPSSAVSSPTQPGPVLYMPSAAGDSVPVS
Strand | bound/input enrichment [ratio]
GAAGAUGAAGCUAAUGUAGCCUGGAAGUAUUACAAAGUCCCAAAGAAAAAAGAUGCCGAAUUUUUACCACCUCAACUUCCAAAUGAUAAAUUCAAGGAUGAUCCAGUUGGACCUUUUGGA | 0.187
UUUCUUUUUCUUUUUCUUUUUAAAAUGUUAAUGCCCGUUGUCUUUCCUGGGCUGUUUGCCCGCGGAAGGAUGCCAGGGAAGCCAGCAGGAGCUAGGAGAGAGUCCGUGGAUCUCGAAAGA | 0.257
AGCUCUCCCUGUGCUAACUGCCUGCACCUUGGACAGAGCGGGUGCGCAAAUCAGAAGGAUCCGUUGGGACCUGCCUUGGCGACCCCAUGGCAUCCCCCAGAACCGUAACUAUUGUGGCCC | 0.107
AGAGACUGGGUCACAAACCCUGGGCUUUUCAAUCAGCCACUGACUUCCCUUCCUGUCAGCCGCAUACCCAUCUAUAAAUUACCAGAGGGAUCACCAACAUGGCUGGGAAUAUCCUGCAGU | 0.314
AAACUCAGAGAGACCUUGACUUUCUUUGAUGAGCUUGAAAACAUCGGCAGAUAUCAAGGAACCCGUAACUUUAGGGAGAGUUUGGCAUCCCUGGUCCAGAGCUGCAGAAAACUUCAGAGC | 0.192
GGACUUGAACAACUUACAAAGUCUCCGGUGGAAUUUGUAGAAUACAACAAGAUGCAACUCCGCAGGAUAUAUCCCAAGGGAACACGUGUGGAUUCAUCCAACUACAUGCCUCAACUCUUC | 0.0926
UCUCCUAGUAGUGAUCUCACACUUUCAAGUGUUCUCUGGGAUAGAGAGAGAUCAAGCUUUUACCGCCUGACGAGUUCAAACAUCAGUAAAUGGGAAUUAGAUGAUUCUUCAGAAAAGCAU | 0.333
UUAAUUUUUUUAAUUUUUUUAUUUUUUAUUUUCUUUUUGGUUUGGGGAGGGAGAAAAGUUCUCCGCACAAAUGUUUUACAUAAUUUGUACCAAAAAAAAAAAAAAAGGAAAGGAAAGAAA | 1.32
ACCCAUGCUUUUAUGGACACUAGGUAAACACCUUCAGCUUAAAUUUUUCGUUAAAUAUUUCCGUUUAUUUUAUUGUUAUCUUCCAGGUGUCUAAAUCUCCAGUCUGUCUGUUGUACUGGU | 0.866
GCCAGCAAGCCGCAGACCAUUCAAGAAUCAACAGGUGGUAUAGUCGAAGUUUUACAUAAGGCCGAUUCAGAAGGAAUCUCACCAAACCGUACCAGUCACGCGGCACCUGCAGCCACGUCA | 0.165
GAAGAUGAAGCCAAUAUAGCCUGGAAGUAUUACAAGUUCCCAAAGAAAAAAGAUGCCGAGUUUUUACCACCUCAACUUCCAAGUGAUAAAUUCAAGGAUGAUCCAGUUGGACCUUUUGGA | 0.602

Further values, each from its own experiment
Molecule | target | test | system | conditions | how to read | quantity | value
PhoQ, residues 284 288 289 292 302 303 AAQSYM | PhoP, residues 12 14 15 18 19 DLLYY (Escherichia coli, UniProt P23836) | Sort-seq, item: YFP reporter | E. coli | PhoQ-PhoP variant library, together with: 10 µM Mg2+ | baseline: high Mg2+ state, higher = stronger signaling | fold induction | 2.07

For quick reference, copied from above (series 4):
Strand | fitted relative affinity [z-score]
TAAGATTTCGGGACTGGATTAGTGCTA | 0.611
TCATGTCAACTTTCTCTGACTGTGCTA | 1.06
TTAGGTATCGACGATCGGTTAGTGCTA | -0.0356
GACGGTCCCGGTTTCGGGACGTGCTAG | 2.98
ATATATATCATTTAATTATAGTGCTAG | 0.382
TGAGATTTCCATTATTGCTTGTGCTAG | 0.894
TTGGATTTCAGACTGGATTAGTGCTAG | 0.322
